{"data": "Measured values pooled from the literature", "note": "Numbered parts are unrelated; each lists some results of a single study."}
{"data": "Block 1", "target": "Phosphate system positive regulatory protein PHO4, full length, GST-tagged (PHO4, Saccharomyces cerevisiae, UniProt P07270, residues 1-312)", "method": "competition protein-binding microarray", "molecule type": "double-stranded DNA, one strand shown", "medium": "in vitro", "concentration": "2 µM", "setting": "whole 60-bp probe, lowest competitor level", "with": "Cbf1 competitor, 0.05 µM", "direction": "higher = stronger binding", "shared flanks, not repeated": "… GTCTTGATTCGCTTGACGCTGCTG", "Residues (chain)": "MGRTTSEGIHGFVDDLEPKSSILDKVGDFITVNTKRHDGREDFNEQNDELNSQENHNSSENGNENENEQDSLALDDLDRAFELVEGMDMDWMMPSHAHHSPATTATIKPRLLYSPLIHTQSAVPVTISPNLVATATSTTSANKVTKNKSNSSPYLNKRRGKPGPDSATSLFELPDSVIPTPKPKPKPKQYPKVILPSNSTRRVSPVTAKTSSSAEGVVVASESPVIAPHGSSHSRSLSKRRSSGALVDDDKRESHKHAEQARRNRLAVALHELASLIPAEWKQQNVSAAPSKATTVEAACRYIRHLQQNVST"}
{"Strand": "GTCTTGTCTCATTGTCACCCAACTTTCCCCACTTCA", "fluorescence intensity [a.u.]": 4130}
{"Strand": "TGGAAGTATTTTACCCACGTATGGCAGGCAAGAACG", "fluorescence intensity [a.u.]": 7060}
{"Strand": "CTAACGAAGGTTTGCTCTGTGGGTGACAAGCCAAGT", "fluorescence intensity [a.u.]": 3330}
{"Strand": "TTTAGGGCTACTTGGAATGTGATATCATTCTTACAA", "fluorescence intensity [a.u.]": 3920}
{"Strand": "AGAGTGGTGCTGAAGCTCGTGACGGGAACAAGATCA", "fluorescence intensity [a.u.]": 6810}
{"Strand": "AAATTACTAAGTTGTCACCGAACTTACCCCGTATGA", "fluorescence intensity [a.u.]": 2820}
{"Strand": "CTGTCCATAACTTCTCTCGTGACTCGGCCAAGGATG", "fluorescence intensity [a.u.]": 6160}
{"Strand": "CATACCCAACCTTGGAGTGTGGGTGAAGATATTTGT", "fluorescence intensity [a.u.]": 6240}
{"Strand": "GTCTTGTCTCATTGTATCGTGGGTGTCCCCACTTCA", "fluorescence intensity [a.u.]": 7780}
{"Strand": "AGACATAGGGAGATGCATGTGTAGCGGATCCGCCTG", "fluorescence intensity [a.u.]": 7110}
{"Strand": "CTTTCCCGATCTTTTCACGTGTAGTTAGCACATTTG", "fluorescence intensity [a.u.]": 12900}
{"Strand": "CATTGCGGCGGGCACCACATGAACTTCGTCAAGAAT", "fluorescence intensity [a.u.]": 5870}
{"Strand": "CCGTTTCCTTTCCATCACGTGCGGAGGTAGCACCCG", "fluorescence intensity [a.u.]": 17400}
{"Strand": "TCACTACGCACAAACCATGTGGATGCCCAATCTGTA", "fluorescence intensity [a.u.]": 10100}
{"Strand": "ACCGGCAAAATACTACACGTGCCAGTACGGCACCAA", "fluorescence intensity [a.u.]": 14600}
{"Strand": "CATACCCAACCTTGGCTAGTGGGTGAAGATATTTGT", "fluorescence intensity [a.u.]": 3740}
{"Strand": "AGAGCTGCGGGCATGGACGTGCCGATTATTCCCGGG", "fluorescence intensity [a.u.]": 6250}
{"Strand": "GACTTACATCTCTGGCACGTGGTGAAGTACGAGCCC", "fluorescence intensity [a.u.]": 16600}
{"Strand": "GTCTTGTCTCATTTTCACGTGTTCTTCCCCACTTCA", "fluorescence intensity [a.u.]": 12900}
{"Strand": "TTCAAACTAAGTTGACCCGTGAATTGGAAAAGAAAT", "fluorescence intensity [a.u.]": 4880}
{"Strand": "GTCTTGTCTCATTGCGTAGTGGGTGTCCCCACTTCA", "fluorescence intensity [a.u.]": 4420}
{"data": "Block 2", "target": "Histone acetyltransferase KAT6A, winged helix 2, GST fusion (KAT6A, Homo sapiens, UniProt Q92794, residues 85-181)", "method": "protein binding microarray", "molecule type": "double-stranded DNA, one strand shown", "medium": "in vitro", "concentration": "not given", "setting": "8-mer, flanks averaged, mean of 2 arrays, mostly near background", "relative to": "not given", "direction": "higher = stronger binding", "Residues (chain)": "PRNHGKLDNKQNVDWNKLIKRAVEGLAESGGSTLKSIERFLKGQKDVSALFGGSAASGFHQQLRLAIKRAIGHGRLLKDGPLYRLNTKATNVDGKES"}
{"Strand": "GTCGGAAC", "E-score": 0.0043}
{"Strand": "GATGACGA", "E-score": 0.0541}
{"Strand": "CAGAAGAC", "E-score": -0.0684}
{"Strand": "TATTCCGA", "E-score": 0.0993}
{"Strand": "ATGCTGGG", "E-score": 0.108}
{"Strand": "CTGCTAAG", "E-score": 0.0569}
{"Strand": "GACCTTTA", "E-score": -0.00143}
{"Strand": "CAGTTGTC", "E-score": 0.105}
{"Strand": "AGCCATCG", "E-score": -0.0571}
{"Strand": "GTAAGGAA", "E-score": -0.147}
{"Strand": "CGCCTAGA", "E-score": -0.0264}
{"Strand": "CATTCACC", "E-score": -0.00897}
{"Strand": "ACCACAAC", "E-score": 0.0294}
{"Strand": "ATAGCGAC", "E-score": -0.0473}
{"Strand": "GAGGTGAA", "E-score": 0.108}
{"Strand": "CGAGCGTA", "E-score": 0.0174}
{"Strand": "CTCATAGC", "E-score": -0.166}
{"Strand": "CCTTTTAG", "E-score": -0.0756}
{"data": "Block 3", "target": "RNA binding protein fox-1 homolog 2, RRM domain, GST-SBP tag (RBFOX2, Homo sapiens, UniProt O43251-10, residues 100-194)", "method": "RNA Bind-n-Seq", "molecule type": "RNA", "medium": "in vitro", "concentration": "365 nM", "setting": "natural RNA segment, single round, ends assumed", "relative to": "no-protein control", "direction": "higher = stronger binding", "shared flanks, not repeated": "GGGAGUUCUACAGUCCGACGAUC … UGGAAUUCUCGGGUGCCAA", "Residues (chain)": "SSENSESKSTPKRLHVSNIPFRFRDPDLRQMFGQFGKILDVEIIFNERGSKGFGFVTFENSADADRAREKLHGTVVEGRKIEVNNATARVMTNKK"}
{"Strand": "AACCCUGGGAUGUGAGCCCUGCCAUGUGCUGGUAACAUGGCUAGGCAUGUUGGGCUUCCCAAACCAUGGAGUCUGGUAACCAGUGAAGGAAGCCCCCAGAAAUAAUGAGU", "RBNS enrichment (R)": 1.86}
{"Strand": "AUGGCGGUCUGCUGGUGCCCUCGAAGGGGCAUCCUUCCUGGUCUUCGCUGACCCAGAGGCGCUGUGCCUGCAUAUCAUCCACCACCACCCUAGCCCAGCCUUCCCACUGC", "RBNS enrichment (R)": 0.552}
{"Strand": "CCUGUUGUACCAGUCUGACCAGUGUUUGGAAUGUUCAGACAUAAUCUCCUGUGUGAAGCUCAAGGUCUUAGGAGGAUUUUGGAUUUUGUGAAGAGAUGGACAGUCUCAUC", "RBNS enrichment (R)": 0.763}
{"Strand": "GCCUCUCCUUGCCCUCUACACCCCGAGCCUCUCAGCCUGCCCUUCUUUCUCCUGCCUGACCCCUGGGUCUCCCUCAGAUUCCCUCCUCUCAGACAGCGCCAGGCCGGGGU", "RBNS enrichment (R)": 0.569}
{"Strand": "UUUCCUUUAUGUGAAUUUUUAAGCUGCGAAUCUGAUGGCCUUAAUUUCCUUUUUGACACUGAAAGUUUUGUAAAAGAAAUCCUAUCCAUACACGUUGUAAGAUGUGAAUU", "RBNS enrichment (R)": 0.366}
{"Strand": "AUCUGAUCAGUUACUUUAAAAAAUGACUUCUUAUUUUUUAAAUGUUUCCACAUUUUUUGCUUGUGGAAAGACUGUUUUCAUAUGUUCUACUUGGAUAAAGAAUUUAAAUG", "RBNS enrichment (R)": 0.391}
{"Strand": "UCUCUCCCUCUCUCCCUCUCUCCCUCUCUCUCUCUCCUGCACCUGCUUGAGUAGGACCAUUUAAACACCUAUUAUGCUAUUCUUGAGAUGGGAUUUUUCAAAGCGGCCAA", "RBNS enrichment (R)": 1.14}
{"Strand": "AAAUCAUAAUGUAUUAUUUAAAUGUUUAACAUCAUUGCAUAACAGCGUUUAUUAUACAGUGGCAGAUUUCUUUAGCUGCCACAGUAAUACUCAUUCCUUGUGUGUGUCUU", "RBNS enrichment (R)": 0.265}
{"Strand": "UUGGAGAGCAAGGAAUGUGGACUUGUAUGGCUUUGAACCAAGAGAGGGUUAUGAGCCUACUGGAUUGAGGUUAAAAUCCAAGAACCAACAUUUAGAGCUUUGUGCUUUUC", "RBNS enrichment (R)": 0.63}
{"Strand": "AAUCUAAUGUUUAAAAGGUUAGGGAACAUGGAUAUUCGUACUCACAUCUGCGCCCCUCCCCCUUGCCUUCUGGGUACCAAACUUGAGGGAGGGGAGAGCUGUUGAAGCAG", "RBNS enrichment (R)": 0.493}
{"Strand": "CUCCCCAGCCACCCCCAUCUGGCAGCUGAUCUCCAAAGUCCUGGCCCGUCACUUCAGUGUAGCAGAUGCCAGCAGGGUCCUGGAACAACUACAGAGGGAUUAUGACAGGU", "RBNS enrichment (R)": 0.506}
{"Strand": "UCAAUUCCUUUAUUCAGGAAAGGAUACUUUAUUGCAUUAUUGUUGCAGAAGCAUAGAUUUAAUUGCAUCUUUAUUUUGAAAAACAAAUGAAAAUUGAUGGGGUUUAAAGC", "RBNS enrichment (R)": 0.651}
{"data": "Block 4", "target": "RING finger protein unkempt homolog, zinc fingers 1-6, GST-SBP tag (UNK, Homo sapiens, UniProt Q9C0B0, residues 30-357)", "method": "RNA Bind-n-Seq", "molecule type": "RNA", "medium": "in vitro", "concentration": "not given", "setting": "RNA with constant flanks, human and mouse sites, ends assumed", "relative to": "input RNA pool", "direction": "higher = stronger binding", "shared flanks, not repeated": "GGGAGUUCUACAGUCCGACGAUC … CAACAGAGGAUUGAGCAUCA", "sequence of UniProt Q9C0B0 (30-357, looked up)": "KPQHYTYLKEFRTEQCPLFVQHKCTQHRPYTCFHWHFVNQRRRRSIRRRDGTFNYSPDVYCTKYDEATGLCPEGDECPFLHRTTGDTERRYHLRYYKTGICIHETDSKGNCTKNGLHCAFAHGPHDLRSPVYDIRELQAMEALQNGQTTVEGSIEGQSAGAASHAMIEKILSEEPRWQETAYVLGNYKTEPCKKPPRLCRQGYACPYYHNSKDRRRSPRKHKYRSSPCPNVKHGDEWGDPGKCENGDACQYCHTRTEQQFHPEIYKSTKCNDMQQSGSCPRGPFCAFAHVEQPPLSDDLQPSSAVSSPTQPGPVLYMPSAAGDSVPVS"}
{"Strand": "UGGCGGAGGCUGGGAUGGAUUCCCUAAGCCAAGCCUGCCCAGCUAAUGAGCUGUUUGACGUUGAACUUGAAAGCUUUCCCCUCCCUCUAAGAUGAUGUAGGUACUUGAGGUUUGGGUUAA", "bound/input enrichment [ratio]": 0.291}
{"Strand": "CCUACAAUAAUGAAAACCUACAGGAAUUUUUUUAUUUUUCAUUUUCUUCUUAGGCAUAGUUAGUCUUUUUCCCCCAGGCAGAUGAUUCUGAGUGUGGGAGUGUGUCUGCACAUGUUAAAA", "bound/input enrichment [ratio]": 2.66}
{"Strand": "CGACGCAAUAAGGAUGUGUUGGCUUGGGUUAAAAAACGCAGAAGAACUAUUCGUCGAGAAGAUUUGAUCAGCUUCCUGUGUGGAAAAGUUCCUCCACCACGAAACUCUAGAGCUCCCCCA", "bound/input enrichment [ratio]": 0.231}
{"Strand": "GUGGCUGAGUACGAUGCCUAUUUUGAGGAGGUUAAACAAGAGAUCAAUCAAAGGCUGACCCUUAGUGACUUCCUGAUCAAGCCCAUUCAGAGAAUAACAAAGUACCAGCUGCUACUCAAG", "bound/input enrichment [ratio]": 0.161}
{"Strand": "CUGGACACACUGGAAGAUGACAUGACCAUCAGUGUGGAAAAGAAGGUCCCGCUGUUACACAACUUUCACUCUUUCCUUUACCAACCAGACUGGCGGUUCAUGGAGAGCAAGGAGAAGGAU", "bound/input enrichment [ratio]": 0.114}
{"Strand": "CCUGCAUCUAAUAGUAGAUCUUCCCAGGACUUUGUGAUGCAUGUAAGUAUUUUUGAAUGUGAGUCAACAGGAGGUUCAUGUUGGGUCCUUGAGCAGACAAUUCAUUUAGAUGAGUUAAGC", "bound/input enrichment [ratio]": 0.155}
{"Strand": "AGUGAUCCACCGUACAUGGAGAUGAAGGGAAAGGCGUCAGAGAAACUCUCUGAAAACAGUAAAAUAUUAAUCUCUAUGGCUAAGGAGAACAUUCCACCAAGCAGCCAACAACAGCCCAAG", "bound/input enrichment [ratio]": 0.21}
{"Strand": "AUGUGCCUGUACUUAAAAAAAAAAAAAUGGUACACCAGAAAAGGACUGGCAGUCUACUACCAUAGUCAAACUUCACCUUAAUUUCGACAUGACUUUUGGAAGCAGGAAGAAAGCUACAAA", "bound/input enrichment [ratio]": 0.603}
{"Strand": "UAUACUUUAUUGAUCAACAUCCUUCAUAGUGAAGACCUAGGAAAGGACGUUGAAUUUGAAGUUGUUGGUGAUGCCCCGGAAAAAGUGGGGCCCAAACAAGCUGAAGAUGCUGCCAAAAGC", "bound/input enrichment [ratio]": 0.173}
{"Strand": "ACUAAAGACUGUGAUGAGAAUAAAGAAAACAAAACUCCAGAAGGAUCUCAGGGAGAAGUUGAUUGGCUCCAGCAGUAUGAUAUGGAGCGUGAAAGGGAAGAGCAAGAGCUUCAGCAGGCA", "bound/input enrichment [ratio]": 0.343}
{"Strand": "AAAGACAAAGAUGAACUUCGAGCUCAGAGAAGAAGGGAAAGGCCAAAGACACCACCUAGUAAUCUCUCUCCCAUUGAAGAUGCAUCUCCGACAGAAGAGUUACGUCAGGCUGCAGAAAUG", "bound/input enrichment [ratio]": 0.2}
{"note": "Repeated from above (block 2):"}
{"Strand": "GTAAGGAA", "E-score": -0.147}
{"Strand": "CGCCTAGA", "E-score": -0.0264}
{"Strand": "CATTCACC", "E-score": -0.00897}
{"Strand": "ACCACAAC", "E-score": 0.0294}
{"Strand": "ATAGCGAC", "E-score": -0.0473}
{"Strand": "GAGGTGAA", "E-score": 0.108}
